Results pooled from the literature.
± marks the error that the study gave.

| SMILES | organism | assay | test system | setting | quantity | value |
| --- | --- | --- | --- | --- | --- | --- |
| COc1cc(-c2oc3cc(O)cc(O)c3c(=O)c2O[C@@H]2O[C@H](CO)[C@@H](O)[C@H](O)[C@H]2O)ccc1O | HIV-1 | viral infection | TZM-bl, NL4-3 (CXCR4-tropic) | 48 h | IC50 | > 100 µM |
| CC(C)Oc1ccc(-c2nc(-c3cccc4c3CC[C@@H]4NCCO)no2)cc1C#N.Cl | Clostridioides difficile |  | ATCC 43255 | spores | IC50 | 16 ± 1.23 mg/L |
| COc1cc(C#CC(=O)c2ccccc2OC)ccc1O | Pseudomonas aeruginosa | biofilm formation | PA14 | static | IC50 | 21 µM |
| Cc1cc(NC(=O)Nc2ccc3c(c2)OC(F)(F)O3)cc(C(F)(F)F)n1 | Leishmania donovani |  | MHOM/ET/67/L-82, axenic amastigotes |  | IC50 | 0.13 µM |
| O=C(/C=C/c1ccc(O)c(O)c1)O[C@@H]1C[C@@](O)(C(=O)O)C[C@@H](O)[C@@H]1O | HIV-1 | viral infection | TZM-bl, BaL (CCR5-tropic) | 48 h | IC50 | > 100 µM |
| COc1cc(C)c(-c2c(C)cc(OC)c3c(=O)cc(-c4ccccc4Br)oc23)c2oc(-c3ccccc3Br)cc(=O)c12 | Toxoplasma gondii | parasite proliferation, 3H-uracil incorporation | ME49 tachyzoites |  | IC50 | 39.6 ± 8.25 µM |
| C[C@@H]1[C@H](O)[C@@H](C)/C=C/C=C/C=C/C=C/C=C/C=C/C=C/[C@H](O[C@@H]2O[C@H](C)[C@@H](O)[C@H](N)[C@@H]2O)C[C@@H]2O[C@](O)(C[C@@H](O)C[C@@H](O)[C@H](O)CC[C@@H](O)C[C@@H](O)CC(=O)O[C@H]1C)C[C@H](O)[C@H]2C(=O)O | Leishmania donovani | parasite survival, MTT | wild-type axenic amastigotes | 48 h | IC50 | 0.2 ± 0.05 µM |
| CCCCC[C@H](O)CC(=O)CCc1ccc(O)c(OC)c1 | Pseudomonas aeruginosa | biofilm formation | PA14 | static | IC50 | 46 µM |
| O=C(O)CCC(=O)OCCN(Cc1ccc(Oc2ccc([N+](=O)[O-])cc2)cc1)C(=O)C(Cl)Cl | Leishmania martiniquensis | parasite growth | THP-1-derived macrophages, intracellular amastigotes | 48 h | IC50 | 15.9 ± 4.56 µM |
| COc1cc(C)c(-c2c(C)cc(OC)c3c(=O)cc(-c4cccc(Br)c4)oc23)c2oc(-c3cccc(Br)c3)cc(=O)c12 | Toxoplasma gondii | parasite proliferation, 3H-uracil incorporation | ME49 tachyzoites |  | IC50 | 12.3 ± 3.1 µM |
| COc1cc(-c2[o+]c3cc(O)cc(O)c3cc2O[C@@H]2O[C@H](CO)[C@@H](O)[C@H](O)[C@H]2O)ccc1O | HIV-1 | viral infection | TZM-bl, BaL (CCR5-tropic) | 48 h | IC50 | > 100 µM |
| COc1cc(OC)c2c(=O)cc(-c3ccccc3Br)oc2c1-c1c(OC)cc(OC)c2c(=O)cc(-c3ccccc3Br)oc12 | Toxoplasma gondii | parasite proliferation, 3H-uracil incorporation | ME49 tachyzoites |  | IC50 | 11.4 ± 0.63 µM |
| OC[C@H]1O[C@@H](Oc2cc3c(O)cc(O)cc3[o+]c2-c2ccc(O)c(O)c2)[C@H](O)[C@@H](O)[C@@H]1O | HIV-1 | viral infection | TZM-bl, BaL (CCR5-tropic) | 48 h | IC50 | > 100 µM |
| COc1cccc(C(=O)C#Cc2ccc(O)c(OC)c2)c1 | Pseudomonas aeruginosa | biofilm formation | PA14 | static | IC50 | 16 µM |
| CC(C)(C)c1ccc(S(=O)(=O)/C=C/C#N)cc1 | Toxoplasma gondii | parasite growth | HFF, bradyzoite, alkaline-induced |  | EC50 | 9.65 µM |
| c1ccc(-c2ccc3c(c2)NC(C2Nc4cc(-c5ccccc5)ccc4O2)O3)cc1 (stereo not shown) | Leishmania martiniquensis | parasite growth | promastigotes | 72 h | IC50 | 3.14 ± 1.76 µM |
| Cc1ccc(S(=O)(=O)/C=C/C#N)cc1 | Toxoplasma gondii | parasite growth, luciferase reporter | HFF, tachyzoite | 72 h | EC90 | 4980 µM |
| CCCCC[C@H](O)/C=C/[C@@H]1[C@@H](C/C=C\CCCC(=O)O)[C@@H](O)C[C@H]1O | Leishmania martiniquensis | promastigote growth, alamarBlue |  | 72 h | IC50 | > 100 µM |
| C[C@@H]1O[C@@H](OC[C@H]2O[C@@H](Oc3cc4c(O)cc(O)cc4[o+]c3-c3ccc(O)c(O)c3)[C@H](O)[C@@H](O)[C@@H]2O)[C@H](O)[C@H](O)[C@H]1O | HIV-1 | viral infection | TZM-bl, NL4-3 (CXCR4-tropic) | 48 h | IC50 | > 100 µM |

For quick reference, copied from above:
| SMILES | organism | assay | test system | setting | quantity | value |
| --- | --- | --- | --- | --- | --- | --- |
| COc1cc(C)c(-c2c(C)cc(OC)c3c(=O)cc(-c4ccccc4Br)oc23)c2oc(-c3ccccc3Br)cc(=O)c12 | Toxoplasma gondii | parasite proliferation, 3H-uracil incorporation | ME49 tachyzoites |  | IC50 | 39.6 ± 8.25 µM |
